Assay results gathered from unrelated publications.
Compare with care: the assays were run in different laboratories. Values joined by “and” are separate records of one study, mostly repeats; a detail may differ. ± marks the error that the study gave.

Structure (SMILES)	test	test system	setting	scale	measurement	result
CC(C)(O)c1ncc([S@](N)(=O)=NC(=O)Nc2c3c(cc4c2CCC4)CCC3)s1	refers to: any system organ class	healthy human volunteers	oral, 100 mg single dose, spray-dried dispersion suspension	–	subjects with TEAEs	50%
C[C@H](CCC(=O)NCC(=O)O)[C@H]1CC[C@H]2[C@@H]3[C@H](O)C[C@@H]4C[C@H](OS(=O)(=O)O)CC[C@]4(C)[C@H]3CC[C@]12C	–	human, plasma	baseline	–	Cmin	0.0227 ± 0.0083 µM
COc1cccc(OC)c1-c1cc(C(=O)NC2(C(=O)O)C3CC4CC(C3)CC2C4)nn1-c1ccc(C(=O)N(C)CCCN(C)CCCN(C)C(=O)[C@H](CCCCNC(=O)[C@H](CC(C)C)NC(=O)C2OC2C(=O)O)NC(=O)CN2CCN(CC(=O)[O-])CCN(CC(=O)[O-])CCN(CC(=O)[O-])CC2)cc1C(C)C.[177Lu+3] (mixture of isomers)	–	mouse, HT-29 xenograft, HT-29 tumour	72 h post injection	–	tissue uptake	7.3 %ID/g
C=CC(=O)Nc1cc(Nc2nccc(-c3cn(C)c4ccccc34)n2)c(OC)cc1N(C)CCNC	storage stability	human plasma	270 ng/mL, 5 h, on ice, HQC level	–	remaining amount	92.3%
CCCCN1C(=O)c2cccc3c(NCCCCCCN4CCOCC4)ccc(c23)C1=O	–	water	pH 6.0	–	fluorescence quantum yield	0.32
CN1CCC[C@]1(C)/C=C/S(=O)(=O)NC(=O)Nc1c2c(cc3c1C(O)CC3)CCC2 (stereo partly shown)	–	human, plasma	oral, 50 mg twice daily of parent drug, day 14, metabolite of dosed drug	–	Tmax at second steady-state dose	4 h
COCC1CN(C2CCN(c3cc(OC)c(Nc4ncc(Br)c(Nc5ccc6c(c5P(C)(C)=O)OCCO6)n4)cc3C)CC2)C1	first-in-human trial	human	oral, 60 mg once daily	treatment-related leading to permanent discontinuation	adverse events	0%
C=C(NC(=O)c1csc(-c2nc3c(cc2O)-c2nc(cs2)C(=O)NC(C(C)O)C(=O)NC(=C(C)OC)c2nc(cs2)C(=O)NC2c4nc(cs4)C(=O)NC(COC(=O)c4c5c6c(cccc6n4O)COC(=O)C(OC4CC(C)(O)C(N(C)C)C(C)O4)C2OC5)c2nc-3cs2)n1)C(N)=O (stereo not shown)	–	cynomolgus monkey, both sexes, plasma	intravenous infusion, 1 mg/kg single dose	–	clearance	123 mL/h/kg
CCCCCCCOc1ccc(CC[C@](N)(CO)COP(=O)(O)O)cc1C(F)(F)F	–	healthy human males, plasma	oral, 0.5 mg, day 1, median	–	Tmax	12 h
CC(=O)N[C@@H](Cc1ccccc1)C(=O)N[C@@H](CC(C)C)C(=O)NCC(=O)N[C@H](C(=O)N[C@@H](CC(C)C)C(=O)N[C@@H](C)C(=O)N[C@@H](CC(C)C)C(=O)N[C@@H](CC(C)C)C(=O)NCC(=O)N[C@@H](Cc1ccc(O)cc1)C(=O)N[C@@H](CC(C)C)C(=O)N[C@@H](C)C(=O)N[C@H](C(=O)N[C@@H](CCCNC(=N)N)C(=O)N1CCC[C@H]1C(=O)N[C@@H](Cc1ccccc1)C(=O)N[C@@H](CC(C)C)C(=O)N1CCC[C@H]1C(=O)N[C@@H](CCCCN)C(=O)N[C@@H](CCCCN)C(=O)N[C@@H](CCCCN)C(=O)N[C@@H](CCC(N)=O)C(=O)N[C@@H](CCC(N)=O)C(=O)N[C@@H](CCCCN)C(N)=O)C(C)C)C(C)C	LC-MS	DOPC vesicles with trypsin	10 µM, 12 h, pH 7.2	–	cleaved to intact ratio	0.08 ± 0.08
Cc1nn(-c2nc3c(F)cc(F)cc3s2)c(O)c1C(c1ccc(C(F)(F)F)cc1)c1c(C)nn(-c2nc3c(F)cc(F)cc3s2)c1O	–	ICR mouse, plasma	intraperitoneal, 10 mg/kg	–	Tlag	0 h
O[C@@H]1[C@@H](O)[C@H](n2cc(COc3ccc(-c4nncnn4)cc3)nn2)O[C@H](C[18F])[C@H]1O	–	LS174T xenograft, BALB/c nude mouse, tumour	intravenous, 1 h, together with: CC49-TCO, Tz/TCO 1:1	–	tumour uptake	1.9 ± 0.7 %ID/g
C=Cc1c(C)c2cc3nc(c(CC(=O)OCCOCCOCCOC)c4[nH]c(cc5nc(cc1[nH]2)C(C)=C5CC)c(C)c4C(=O)O)[C@@H](CCC(=O)OCCOCCOCCOC)[C@@H]3C	LC-MS	methanol-water 9:1	4 h, pH 8.0	–	compound loss	29%
O=C(Nc1cnccc1-c1ccc([18F])cc1)c1ccnc(NC(=O)C2CC2)c1	–	FVB/NJ mice, both sexes, brain	intravenous, 5 min, median, P-gp inhibitor pretreatment, together with: tariquidar 15 mg/kg iv	–	SUV	1.02
COC(=O)C(C)n1nc(Cn2cc3cc(OCC[18F])c(Cl)cc3n2)c2ccccc2c1=O (racemic)	–	rat, brain	45 min	–	radiometabolite	~30% and 30%
CN1C(=O)[C@@H](Cc2ccc(O)c(I)c2)NC(=O)CNC(=O)[C@H](Cc2ccc3ccccc3c2)NC(=O)[C@H](CCCNC(=N)N)NC(=O)[C@H]1CCCNC(=O)c1ccc(CNC(=O)CN2CCN(CC(=O)O)CCN(CC(=O)O)CCN(CC(=O)O)CC2)cc1 [lutetium-177 labelled]	2	human, extrapolated from mouse, red marrow	–	–	total absorbed dose	0.099 mGy/MBq

For quick reference, copied from above:
Structure (SMILES)	test	test system	setting	scale	measurement	result
C[C@H](CCC(=O)NCC(=O)O)[C@H]1CC[C@H]2[C@@H]3[C@H](O)C[C@@H]4C[C@H](OS(=O)(=O)O)CC[C@]4(C)[C@H]3CC[C@]12C	–	human, plasma	baseline	–	Cmin	0.0227 ± 0.0083 µM
COc1cccc(OC)c1-c1cc(C(=O)NC2(C(=O)O)C3CC4CC(C3)CC2C4)nn1-c1ccc(C(=O)N(C)CCCN(C)CCCN(C)C(=O)[C@H](CCCCNC(=O)[C@H](CC(C)C)NC(=O)C2OC2C(=O)O)NC(=O)CN2CCN(CC(=O)[O-])CCN(CC(=O)[O-])CCN(CC(=O)[O-])CC2)cc1C(C)C.[177Lu+3] (mixture of isomers)	–	mouse, HT-29 xenograft, HT-29 tumour	72 h post injection	–	tissue uptake	7.3 %ID/g
